Measured values of several laboratories.
Each line is one published result; not all experiments were run side by side. Numbers after ± are the reported error.

Compound	target or system	test	test system	setting	endpoint	result
CCC(=O)N(C)c1ccc(Cl)c(Cl)c1	Salmonella typhimurium	Ames test	TA100	1.00 mg/plate, without S9	revertant colonies	38 ± 20.2 revertants/plate
COc1cc(C(=O)NCCOCCOCCOCCNC(=O)c2ccc([18F])nc2)ccc1NC(=O)C1NC(CC(C)(C)C)C(C#N)(c2ccc(Cl)cc2F)C1c1cccc(Cl)c1F (stereo not drawn)	HepG2 tumour model		host not given, heart	4 h, tumour-bearing	tracer uptake	0.26 %ID/g
CCCCCCCCCCCC(=O)NCC(=O)N[C@@H](CC(C)C)C(=O)N[C@@H](CC(C)C)C(=O)N[C@@H](CCCCN)C(=O)N[C@@H](CCCNC(=N)N)C(=O)N[C@H](C(=O)N[C@@H](CCCCN)C(=O)N[C@H](C(=O)N[C@@H](CC(C)C)C(=O)N[C@@H](CC(C)C)C(=O)NCCCC[C@H](NC(=O)[C@H](CCCCNC(=O)[C@H](CC(C)C)NC(=O)[C@H](CC(C)C)NC(=O)[C@@H](NC(=O)[C@H](CCCCN)NC(=O)[C@@H](NC(=O)[C@H](CCCNC(=N)N)NC(=O)[C@H](CCCCN)NC(=O)[C@H](CC(C)C)NC(=O)[C@H](CC(C)C)NC(=O)CNC(=O)CCCCCCCCCCC)[C@@H](C)CC)[C@@H](C)O)NC(=O)[C@H](CC(C)C)NC(=O)[C@H](CC(C)C)NC(=O)[C@@H](NC(=O)[C@H](CCCCN)NC(=O)[C@@H](NC(=O)[C@H](CCCNC(=N)N)NC(=O)[C@H](CCCCN)NC(=O)[C@H](CC(C)C)NC(=O)[C@H](CC(C)C)NC(=O)CNC(=O)CCCCCCCCCCC)[C@@H](C)CC)[C@@H](C)O)C(N)=O)[C@@H](C)O)[C@@H](C)CC	human erythrocytes			1 h, 37 °C, 10% haemolysis	minimum haemolytic concentration	104 µM
C[C@@](O)(C(F)F)[C@H](NC(=O)c1ccc(C#CC#CC2CC2)cc1)C(=O)NO			CD-1 mouse	oral, 40 mg/kg, not fasted	AUC(0-inf)	5800 ± 2500 ng·h/mL
COc1ccc(CNc2nc(N3CCC[C@H]3CO)ncc2C(=O)NN)cc1Cl	Salmonella typhimurium		TA98	62.5 µg/plate, 48 h, added: rat liver S9	revertant count	30 ± 2
Cc1nc([C@H](NC(=O)c2ccc(-c3ccc(Cl)cc3)[nH]2)[C@@H]2CCCCN2)sc1CO	U87/CD4/CCR5	cell growth or viability, XTT			CC50	~30 µM
O=C(O)CCC(NP(=O)(O)OCCC[C@@H](NC(=O)CCC(NC(=O)CCCCCNC(=O)c1ccc([18F])cc1)C(=O)O)C(=O)O)C(=O)O (stereo partly drawn)	CWR22Rv1 tumour model		host not given, liver	intravenous, 2 h, tumour-bearing	tracer uptake	0.29 %ID/g
CC[C@H](C)C(=O)N1CCC(NC(=O)Nc2ccc(OC(F)(F)F)c(F)c2)CC1			healthy volunteers	oral, 0.5 mg single dose, 14 (unit not given)	subjects with any TEAE	33.3%
CCCCCC(=O)NCC(=O)N[C@@H](CC(C)C)C(=O)N[C@@H](CC(C)C)C(=O)N[C@@H](CCCCN)C(=O)N[C@@H](CCCNC(=N)N)C(=O)N[C@H](C(=O)N[C@@H](CCCCN)C(=O)N[C@H](C(=O)N[C@@H](CC(C)C)C(=O)N[C@@H](CC(C)C)C(=O)NCCCC[C@H](NC(=O)[C@H](CC(C)C)NC(=O)[C@H](CC(C)C)NC(=O)[C@@H](NC(=O)[C@H](CCCCN)NC(=O)[C@@H](NC(=O)[C@H](CCCNC(=N)N)NC(=O)[C@H](CCCCN)NC(=O)[C@H](CC(C)C)NC(=O)[C@H](CC(C)C)NC(=O)CNC(=O)CCCCC)[C@@H](C)CC)[C@@H](C)O)C(N)=O)[C@@H](C)O)[C@@H](C)CC	human erythrocytes			1 h, 37 °C, 10% haemolysis	minimum haemolytic concentration	6.08 µM
O=C1CC(=O)N(c2ccccc2)c2cc(Cl)ccc2N1			129X1/SvJ mice, whole blood	oral, 1 mg/kg, 2 h	blood concentration	1000 nM
CCCCCCCC(=O)NCC(=O)N[C@@H](CC(C)C)C(=O)N[C@@H](CC(C)C)C(=O)N[C@@H](CCCCN)C(=O)N[C@@H](CCCNC(=N)N)C(=O)N[C@H](C(=O)N[C@@H](CCCCN)C(=O)N[C@H](C(=O)N[C@@H](CC(C)C)C(=O)N[C@@H](CC(C)C)C(=O)NCCCC[C@H](NC(=O)[C@H](CC(C)C)NC(=O)[C@H](CC(C)C)NC(=O)[C@@H](NC(=O)[C@H](CCCCN)NC(=O)[C@@H](NC(=O)[C@H](CCCNC(=N)N)NC(=O)[C@H](CCCCN)NC(=O)[C@H](CC(C)C)NC(=O)[C@H](CC(C)C)NC(=O)CNC(=O)CCCCCCC)[C@@H](C)CC)[C@@H](C)O)C(=O)NCCCC[C@H](NC(=O)[C@H](CCCCNC(=O)[C@H](CC(C)C)NC(=O)[C@H](CC(C)C)NC(=O)[C@@H](NC(=O)[C@H](CCCCN)NC(=O)[C@@H](NC(=O)[C@H](CCCNC(=N)N)NC(=O)[C@H](CCCCN)NC(=O)[C@H](CC(C)C)NC(=O)[C@H](CC(C)C)NC(=O)CNC(=O)CCCCCCC)[C@@H](C)CC)[C@@H](C)O)NC(=O)[C@H](CC(C)C)NC(=O)[C@H](CC(C)C)NC(=O)[C@@H](NC(=O)[C@H](CCCCN)NC(=O)[C@@H](NC(=O)[C@H](CCCNC(=N)N)NC(=O)[C@H](CCCCN)NC(=O)[C@H](CC(C)C)NC(=O)[C@H](CC(C)C)NC(=O)CNC(=O)CCCCCCC)[C@@H](C)CC)[C@@H](C)O)C(N)=O)[C@@H](C)O)[C@@H](C)CC	human erythrocytes			1 h, 37 °C, 10% haemolysis	minimum haemolytic concentration	103 µM
CN(C)CC1CCCCC1(O)c1cccc(O)c1 (stereo not drawn)	Caco-2 TC7 monolayer			1 µM, 3 h, apical pH 6.8, basolateral pH 7.4	Papp A-to-B	8.3 ± 0.3 ×10⁻⁶ cm/s
C[C@]12CC[C@H](OCC[18F])C[C@H]1CC[C@@H]1[C@@H]2CC[C@]2(C)[C@@H](c3ccc(=O)oc3)CC[C@]12O	SMMC-7721 tumour model		nude, tumour	intravenous, 7.4 MBq, 5 min, tumour-bearing	tracer uptake	2.96 %ID/g
Clc1cc2c(cc1Cl)Oc1c(Cl)c(Cl)c(Cl)c(Cl)c1O2	Caco-2 monolayer	GC-HRMS	gut-on-a-chip	0.2 ng/mL, 24 h, 1% DMSO	mass balance	98 ± 8%
CCCC(=O)NCC(=O)N[C@@H](CC(C)C)C(=O)N[C@@H](CC(C)C)C(=O)N[C@@H](CCCCN)C(=O)N[C@@H](CCCNC(=N)N)C(=O)N[C@H](C(=O)N[C@@H](CCCCN)C(=O)N[C@H](C(=O)N[C@@H](CC(C)C)C(=O)N[C@@H](CC(C)C)C(=O)NCCCC[C@H](NC(=O)[C@H](CCCCNC(=O)[C@H](CC(C)C)NC(=O)[C@H](CC(C)C)NC(=O)[C@@H](NC(=O)[C@H](CCCCN)NC(=O)[C@@H](NC(=O)[C@H](CCCNC(=N)N)NC(=O)[C@H](CCCCN)NC(=O)[C@H](CC(C)C)NC(=O)[C@H](CC(C)C)NC(=O)CNC(=O)CCC)[C@@H](C)CC)[C@@H](C)O)NC(=O)[C@H](CC(C)C)NC(=O)[C@H](CC(C)C)NC(=O)[C@@H](NC(=O)[C@H](CCCCN)NC(=O)[C@@H](NC(=O)[C@H](CCCNC(=N)N)NC(=O)[C@H](CCCCN)NC(=O)[C@H](CC(C)C)NC(=O)[C@H](CC(C)C)NC(=O)CNC(=O)CCC)[C@@H](C)CC)[C@@H](C)O)C(N)=O)[C@@H](C)O)[C@@H](C)CC	human erythrocytes			1 h, 37 °C, 10% haemolysis	minimum haemolytic concentration	3.18 µM
CCCCn1cc(C(=O)O)c(=O)c2cc(F)c(Nc3cccc(Cl)c3)c([N+](=O)[O-])c21	HT-29	cell growth or viability, SRB			IC50	58.8 µM
CCC1CN2CCC3(O)C(=Nc4cccc(OC)c43)C2CC1C(=COC)C(=O)OC (stereo not drawn)	UDP-glucuronosyltransferase, human	4-MU glucuronidation, inhibitor	human liver microsomes	30 min, pH 7.4, added: 4-methylumbelliferone 100 µM	IC50	> 100 µM
CN[C@](C)(C[18F])C(=O)O	SK-OV-3 tumour model		host not given, blood	15 min, tumour-bearing	tracer uptake	3.1 %ID/g

A few entries again:
Compound	target or system	test	test system	setting	endpoint	result
CCC(=O)N(C)c1ccc(Cl)c(Cl)c1	Salmonella typhimurium	Ames test	TA100	1.00 mg/plate, without S9	revertant colonies	38 ± 20.2 revertants/plate
